Experimental data gathered from unrelated publications.
Numbered parts are unrelated; each lists some results of a single study. Substitutions count along the parent as printed.

Set 1
Target: CREBRF, bZIP domain (human)
Method: DHFR protein complementation
Sample: yeast
Setting: single substitutions, most at no-binding floor
Reference: wild-type JUN-FOS pair
Reading: higher = stronger binding
Starting sequence: JUN, bZIP domain (human); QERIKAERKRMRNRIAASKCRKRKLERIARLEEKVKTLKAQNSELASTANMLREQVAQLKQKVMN; partner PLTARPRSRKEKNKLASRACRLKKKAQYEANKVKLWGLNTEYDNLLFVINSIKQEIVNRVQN
`T37E` has a binding fitness of -1.36 natural log.
For `Q55N`, the binding fitness was -1.47 natural log.
`K36M` has a binding fitness of -1.46 natural log.
For `L38N`, the binding fitness was -1.54 natural log.
`L52C` has a binding fitness of -1.55 natural log.
For `A46V`, the binding fitness was -1.36 natural log.
The binding fitness of `E44R` is reported as -1.38 natural log.
For `V35E`, the binding fitness was -1.5 natural log.
`L52R` has a binding fitness of -1.49 natural log.
`N42W` has a binding fitness of -1.35 natural log.
For `E33Q`, the binding fitness was -1.6 natural log.
For `L52Q`, the binding fitness was -1.5 natural log.
For `L52G`, the binding fitness was -1.57 natural log.
`K34M` has a binding fitness of -1.52 natural log.
For `A40Q`, the binding fitness was -1.31 natural log.
The binding fitness of `S47P` is reported as -1.56 natural log.
With `S47N` the binding fitness was -1.45 natural log.

Set 2
Target: RING finger protein unkempt homolog, zinc fingers 1-6, GST-SBP tag (UNK, Homo sapiens, UniProt Q9C0B0, residues 30-357)
Method: RNA Bind-n-Seq
Molecule type: RNA
Sample: in vitro
Concentration: not given
Setting: RNA with constant flanks, human-mouse chimeric sites, ends assumed
Reference: input RNA pool
Reading: higher = stronger binding
Constant ends, left off below: GGGAGUUCUACAGUCCGACGAUC … CAACAGAGGAUUGAGCAUCA
Target sequence (chain): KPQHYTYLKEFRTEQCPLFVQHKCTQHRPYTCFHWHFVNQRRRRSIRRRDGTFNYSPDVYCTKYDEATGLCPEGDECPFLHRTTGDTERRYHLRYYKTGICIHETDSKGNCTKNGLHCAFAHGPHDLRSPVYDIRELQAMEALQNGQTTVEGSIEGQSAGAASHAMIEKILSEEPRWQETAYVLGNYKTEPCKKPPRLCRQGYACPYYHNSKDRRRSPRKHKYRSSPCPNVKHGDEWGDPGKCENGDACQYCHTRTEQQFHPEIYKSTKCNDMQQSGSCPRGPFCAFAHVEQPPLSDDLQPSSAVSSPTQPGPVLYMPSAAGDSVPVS
`AUUGUUGAAGCGAAUCCACUUUUAGAAGCCUUUGGAAAUGCAAAGACUGUUCGCAACAAUAAUAGCAGUCGAUUUGGGAAAUUUGUAGAAAUUCAUUUCAAUGAAAAGAGUUCGGUUGUU` has a bound/input enrichment of 0.346 ratio.
For `GUUGCCAGCUUCCGGUUCCGUUGGGCUCGGUUCUCUCCUGAGCUACGUGUCUCUACGCUCUCAAUCCCGGUUGGGUAGGCAGUCAUGCAGGUAAUGCAGUUUGUGGAGCCCAGCCGGCAG`, the bound/input enrichment was 0.0837 ratio.
`UCCCAAAUCCAGCAGCUCCUUGAAAUAUUGAGACAAACACUCCACACACAGGGAAGGCGAUAACAUUGUACAUUGGUUUACAUUUUUUCCCCCUGUGGAUUUUUCUAUCCUAGUGCUUGC` has a bound/input enrichment of 0.302 ratio.
The bound/input enrichment of `GAGCCCAGUCGGCAGUUUGUAAAGGACUCAAUUCGGCUGGUUAAAAGAUGCACCAAACCCGACAGAAAAGAAUUCCAGAAGAUUGCCAUGGCAACAGCUAUAGGAUUUGCUAUCAUGGGA` is reported as 0.189 ratio.
`AAAGUGAUAACCAUGUUUGUCCAACGACAGGUAUUUUCGGAGAGCAAAGAUGAGAUUGCGUUAGUCCUCUAUGGCACAGAUGGCACUGAUAAUGCCCUUGCUGGCAAGGACCAGUAUCAG` gave a bound/input enrichment of 0.143 ratio.
For `CUUCGGAAAAAAAAAUUACCUUUUCUGACAGUGCUUUCCCUCCCAUAGGUCCAGGUUCAAGCUCAAAGAGCAAAGGCUUUGCACGGAGCUCAAACAUCUGAUGAAGAAAGAUUUCUGAGA`, the bound/input enrichment was 0.253 ratio.
`AGAUUCCCCCUCCUGAGACCUCCUCCGAAGUUGGAGUCUCUUACAGAUGGUUCAUCUCCUGUUAGUAUUUUAGUUUGGACCACCCAGCCUUGGACAAUUCCCGCCAACCAGGCAAUUUGC` gave a bound/input enrichment of 9.8 ratio.
The bound/input enrichment of `CCCCAAUACCAUUUGCAAGAGUUGGAAUGCACUCUCUUUUUUAAAAAAUAUGCAUAUAUUUUAGGGCUGUAGAUUUAUUUUCCUGGUUUUGUUUUUCAUUGCUGACUUUUGAGCACAGAA` is reported as 1.2 ratio.
`AUCAAAUACUUUGGGGACAUCAUUAGUGUGGGACAGAGACUGUUGCAAGGGGCCCGGAUUUUAGGAAUUCCAGUUAUCAUAACGGAACAAUACCCCAAAGGACUUGGCAGCACCGUUCAA` has a bound/input enrichment of 0.405 ratio.
For `UACUCAACUUUCUUGCCACAUUUUGAAUUCCAAGACAUUAUUCCUCCAGAUGACUUCCUAACGAGUGAUGAAGAGCAAGAUUUGGUUUUAUUUGGAAGUUUGAGAGGACAAGUUGUUGGA`, the bound/input enrichment was 0.189 ratio.
For `GUGACUGACAUUAAAAUUUCCCCUCAGCAAAGAAGUGCAGUAGUCACCAUAAUUCCAUCUAUAGUGAGUGCCAGUCAGAUUGUGGAGCUGGUCCCAGACCUCAGUUUAGACAUGGGAACU`, the bound/input enrichment was 1.14 ratio.

Set 3
Target: Histone acetyltransferase KAT6A, both winged helices, GST fusion (KAT6A, Homo sapiens, UniProt Q92794, residues 1-181)
Method: protein binding microarray
Molecule type: double-stranded DNA, one strand shown
Sample: in vitro
Concentration: not given
Setting: 8-mer, flanks averaged, mean of 2 arrays, mostly near background
Reference: not given
Reading: higher = stronger binding
Residues (chain): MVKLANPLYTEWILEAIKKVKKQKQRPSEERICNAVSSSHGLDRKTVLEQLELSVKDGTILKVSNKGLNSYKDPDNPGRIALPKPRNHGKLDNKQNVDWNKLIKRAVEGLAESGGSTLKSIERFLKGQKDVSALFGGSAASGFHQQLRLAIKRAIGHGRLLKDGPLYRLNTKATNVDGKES
`ACGAGGAA` has an E-score of -0.0871.
`ATTACAAA` has an E-score of -0.092.
With `GCCCTCTA` the E-score was -0.0241.
With `GATCCAGC` the E-score was -0.145.
For `ACAGGCCT`, the E-score was -0.0669.
With `GGTCCCGA` the E-score was 0.0694.
For `GCTGGGAA`, the E-score was -0.0485.
With `CATGTCGC` the E-score was 0.201.
`CACCGTTA` has an E-score of 0.0621.
`CGATCTAC` gave an E-score of -0.044.
`ATAGACTG` has an E-score of -0.0447.
For `GCAGCGCA`, the E-score was 0.25.
For `CAAACTGA`, the E-score was -0.047.
The E-score of `AAACGTTG` is reported as -0.0618.
For `GGTTCTCA`, the E-score was -0.0519.
For `ATGCCTTA`, the E-score was -0.153.
For `ACAGAAAT`, the E-score was -0.183.
With `GACGCTCA` the E-score was 0.118.
The E-score of `ATTAGGCG` is reported as 0.101.
The E-score of `ACGGCAAT` is reported as 0.279.
The E-score of `GAGTGAGA` is reported as -0.0939.
With `CAAACAGA` the E-score was -0.0703.
With `AACATGCG` the E-score was 0.18.
`GCACGTTA` has an E-score of -0.0678.
With `ACTAAACC` the E-score was 0.134.

Set 4
Target: CCND3, cyclin fold, Cln2 fusion (human)
Method: yeast growth competition, sequencing
Sample: yeast
Setting: weak parent motif
Reference: not given
Reading: higher = stronger binding
Starting sequence: ITGB3BP docking peptide (human); MPVKRSLKLDGLL
`MAVKRSLKLDGLL [P2A]` — result for “normalised enrichment score”: 0.134.
`MPVKRSLKLDGLA [L13A]`: “normalised enrichment score” 0.162.
`MPVKKSLKLDGLL [R5K]` — result for “normalised enrichment score”: -0.0911.
`MPVKRSLKLDALL [G11A]` — result for “normalised enrichment score”: 0.111.
Under “normalised enrichment score”, `MPVKASLKLDGLL [R5A]` is recorded as 0.0617.
`MPVKRSAKLDGLL [L7A]`: “normalised enrichment score” 0.206.
For `MPVKRSLKADGLL [L9A]`, “normalised enrichment score” read 0.183.
Under “normalised enrichment score”, `MPVKRALKLDGLL [S6A]` is recorded as 0.151.
Under “normalised enrichment score”, `MPVKASAKLDGLL [R5A L7A]` is recorded as 0.115.
`MPVKKSLKFDGLL [R5K L9F]`: “normalised enrichment score” 0.0815.

Set 5
Target: Interferon regulatory factor 5, full length, phosphomimetic (IRF5, Homo sapiens, UniProt Q13568-2, residues 1-514, S451D/S453D/S456D/S462D)
Method: protein-binding microarray
Molecule type: double-stranded DNA, one strand shown
Sample: in vitro
Concentration: 940 nM top
Setting: 60-bp whole probe
With: salmon DNA 0.4 mg/ml
Reference: random background probes
Reading: higher = stronger binding
Constant ends, left off below: GCCTAGCAC … GTCTTGATTCGCTTGACGCTGCTG
`TCAGTTTCCATTTTCAGACTGTGCTAG`: “fitted relative affinity” 2.76 z-score.
`GAAGGACTGGGGTATCGGGACGTGCTA`: “fitted relative affinity” 0.329 z-score.
Under “fitted relative affinity”, `TTCGATATCAGTTTCGATTAGTGCTAG` is recorded as 7.94 z-score.
Under “fitted relative affinity”, `TTTTCACTTTCTTTAACATAGTGCTAG` is recorded as 3.5 z-score.
`TTAGGTCACGGTCTCGGTTAGTGCTAG` — result for “fitted relative affinity”: 1.61 z-score.
`CACGGTTTCCTTTTCCTGACGTGCTAG`: “fitted relative affinity” 1.9 z-score.
`GACGGTTTCCTTCTCCTGAAGTGCTAG` — result for “fitted relative affinity”: 1.63 z-score.
`TTAGGTTTCGACTTTCGATTAGTGCTA` — result for “fitted relative affinity”: 8.73 z-score.
For `TTAGGTTTCGTCACTGGGTTAGTGCTA`, “fitted relative affinity” read 5.7 z-score.
`GAACATTTCCTTTACATTCCGTGCTAG` — result for “fitted relative affinity”: 0.902 z-score.
`CTCAAGATTCCTCTCACCTCGTGCTAG` — result for “fitted relative affinity”: 0.539 z-score.
`TCAGATTTCAGTCTCGATTAGTGCTAG`: “fitted relative affinity” 4.26 z-score.
`TCTTGTCTGGATGTGCCTTAGTGCTAG`: “fitted relative affinity” 0.42 z-score.
`GACGATTTGAGTTTCGAGACGTGCTAG` — result for “fitted relative affinity”: 3.79 z-score.
`TTAGATTCCAGTTTTGATTAGTGCTAG`: “fitted relative affinity” 1.09 z-score.
`TCAGACTTGATTTTGGTACTGTGCTAG`: “fitted relative affinity” -0.275 z-score.
For `TTAGAACTGAGGTATCGATTAGTGCTA`, “fitted relative affinity” read 2.08 z-score.
Under “fitted relative affinity”, `CACGGACTGGGGTTTCGGGACGTGCTA` is recorded as 1.33 z-score.
Under “fitted relative affinity”, `GACGATATCAGTCTCGAGAGGTGCTAG` is recorded as 0.61 z-score.
Under “fitted relative affinity”, `TTAGATTTCGACTTTCGGTTAGTGCTA` is recorded as 3.98 z-score.
`GACGGACTGGGTATCAGGACGTGCTAG`: “fitted relative affinity” -0.238 z-score.
`GACGATTTCGGTCTCGGGACGTGCTAG`: “fitted relative affinity” 2.12 z-score.
`TTAGATCTCAGACTGAATTAGTGCTAG` — result for “fitted relative affinity”: -0.0267 z-score.
Under “fitted relative affinity”, `GACGGATTCGGACTGGGGACGTGCTAG` is recorded as -0.317 z-score.

Other studies, line by line
For `PhoQ, residues 284 288 289 292 302 303 SIHMAM`, the fold induction was 11.8 (PhoP, residues 12 14 15 18 19 TQAIL (Escherichia coli, UniProt P23836); Sort-seq, refers to: YFP reporter; E. coli; PhoQ-PhoP variant library, with: 10 µM Mg2+; reference: high Mg2+ state, higher = stronger signaling).

Repeated from above (set 4):
`MAVKRSLKLDGLL [P2A]` — result for “normalised enrichment score”: 0.134.
`MPVKRSLKLDGLA [L13A]`: “normalised enrichment score” 0.162.
`MPVKKSLKLDGLL [R5K]` — result for “normalised enrichment score”: -0.0911.
`MPVKRSLKLDALL [G11A]` — result for “normalised enrichment score”: 0.111.
Under “normalised enrichment score”, `MPVKASLKLDGLL [R5A]` is recorded as 0.0617.
`MPVKRSAKLDGLL [L7A]`: “normalised enrichment score” 0.206.
For `MPVKRSLKADGLL [L9A]`, “normalised enrichment score” read 0.183.
Under “normalised enrichment score”, `MPVKRALKLDGLL [S6A]` is recorded as 0.151.
Under “normalised enrichment score”, `MPVKASAKLDGLL [R5A L7A]` is recorded as 0.115.
`MPVKKSLKFDGLL [R5K L9F]`: “normalised enrichment score” 0.0815.
